Published values collected from several papers.
Every numbered part comes from another study and shows a few of its results, in no order.

Block 1 — tested at: 1 µM; reference: DMSO
Structure (SMILES): CCCCNc1ncc(-c2ccc(CN3CCOCC3)cn2)c(NC2CCC(O)CC2)n1 (centres unmarked)
The viability was 114% (sample BA colorectal tumour organoid).
sample B colorectal tumour organoid; replicate 2 — viability: 95.2%.
The viability was 87.6% (sample C colorectal tumour organoid; replicate 1).
It gave 106% for viability (colorectal tumour organoids).
For sample B colorectal tumour organoid; replicate 1: viability read 118%.
It gave 113% for viability (sample C colorectal tumour organoid; replicate 2).

Block 2 — species: mouse; medium: microsomes or S9; tested at: 2 µM; time: 0.5 h
`CS(=O)(=O)N1N=C(c2cccs2)CC1c1ccc2nccnc2c1` (centres unmarked) has a remaining compound of 22.7%.
The remaining compound of `CCn1ncc(Cl)c1-c1nc2c3cnn(C)c3ncn2n1` is reported as 100%.
For `CCc1csc(Cn2cc(C(C)c3ccccc3)nn2)n1` (centres unmarked), the remaining compound was 10.6%.
`CC(C)n1/c(=N/C(=O)c2ccccc2Br)c(C#N)cc2c(=O)n3ccccc3cc21` has a remaining compound of 37.1%.
With `C/C(=C\COc1ccc2ccc(=O)oc2c1)CC/C=C(\C)CCC(O)C(C)(C)O` (centres unmarked) the remaining compound was 76.7%.

Block 3 — effect on: enzyme activity; mode: inhibitor; tested at: 0.5 µM; reference: control
Target: Serine/threonine-protein kinase WNK2 (WNK2, Homo sapiens, UniProt Q9Y3S1)
Chain of UniProt Q9Y3S1 (whole entry, looked up): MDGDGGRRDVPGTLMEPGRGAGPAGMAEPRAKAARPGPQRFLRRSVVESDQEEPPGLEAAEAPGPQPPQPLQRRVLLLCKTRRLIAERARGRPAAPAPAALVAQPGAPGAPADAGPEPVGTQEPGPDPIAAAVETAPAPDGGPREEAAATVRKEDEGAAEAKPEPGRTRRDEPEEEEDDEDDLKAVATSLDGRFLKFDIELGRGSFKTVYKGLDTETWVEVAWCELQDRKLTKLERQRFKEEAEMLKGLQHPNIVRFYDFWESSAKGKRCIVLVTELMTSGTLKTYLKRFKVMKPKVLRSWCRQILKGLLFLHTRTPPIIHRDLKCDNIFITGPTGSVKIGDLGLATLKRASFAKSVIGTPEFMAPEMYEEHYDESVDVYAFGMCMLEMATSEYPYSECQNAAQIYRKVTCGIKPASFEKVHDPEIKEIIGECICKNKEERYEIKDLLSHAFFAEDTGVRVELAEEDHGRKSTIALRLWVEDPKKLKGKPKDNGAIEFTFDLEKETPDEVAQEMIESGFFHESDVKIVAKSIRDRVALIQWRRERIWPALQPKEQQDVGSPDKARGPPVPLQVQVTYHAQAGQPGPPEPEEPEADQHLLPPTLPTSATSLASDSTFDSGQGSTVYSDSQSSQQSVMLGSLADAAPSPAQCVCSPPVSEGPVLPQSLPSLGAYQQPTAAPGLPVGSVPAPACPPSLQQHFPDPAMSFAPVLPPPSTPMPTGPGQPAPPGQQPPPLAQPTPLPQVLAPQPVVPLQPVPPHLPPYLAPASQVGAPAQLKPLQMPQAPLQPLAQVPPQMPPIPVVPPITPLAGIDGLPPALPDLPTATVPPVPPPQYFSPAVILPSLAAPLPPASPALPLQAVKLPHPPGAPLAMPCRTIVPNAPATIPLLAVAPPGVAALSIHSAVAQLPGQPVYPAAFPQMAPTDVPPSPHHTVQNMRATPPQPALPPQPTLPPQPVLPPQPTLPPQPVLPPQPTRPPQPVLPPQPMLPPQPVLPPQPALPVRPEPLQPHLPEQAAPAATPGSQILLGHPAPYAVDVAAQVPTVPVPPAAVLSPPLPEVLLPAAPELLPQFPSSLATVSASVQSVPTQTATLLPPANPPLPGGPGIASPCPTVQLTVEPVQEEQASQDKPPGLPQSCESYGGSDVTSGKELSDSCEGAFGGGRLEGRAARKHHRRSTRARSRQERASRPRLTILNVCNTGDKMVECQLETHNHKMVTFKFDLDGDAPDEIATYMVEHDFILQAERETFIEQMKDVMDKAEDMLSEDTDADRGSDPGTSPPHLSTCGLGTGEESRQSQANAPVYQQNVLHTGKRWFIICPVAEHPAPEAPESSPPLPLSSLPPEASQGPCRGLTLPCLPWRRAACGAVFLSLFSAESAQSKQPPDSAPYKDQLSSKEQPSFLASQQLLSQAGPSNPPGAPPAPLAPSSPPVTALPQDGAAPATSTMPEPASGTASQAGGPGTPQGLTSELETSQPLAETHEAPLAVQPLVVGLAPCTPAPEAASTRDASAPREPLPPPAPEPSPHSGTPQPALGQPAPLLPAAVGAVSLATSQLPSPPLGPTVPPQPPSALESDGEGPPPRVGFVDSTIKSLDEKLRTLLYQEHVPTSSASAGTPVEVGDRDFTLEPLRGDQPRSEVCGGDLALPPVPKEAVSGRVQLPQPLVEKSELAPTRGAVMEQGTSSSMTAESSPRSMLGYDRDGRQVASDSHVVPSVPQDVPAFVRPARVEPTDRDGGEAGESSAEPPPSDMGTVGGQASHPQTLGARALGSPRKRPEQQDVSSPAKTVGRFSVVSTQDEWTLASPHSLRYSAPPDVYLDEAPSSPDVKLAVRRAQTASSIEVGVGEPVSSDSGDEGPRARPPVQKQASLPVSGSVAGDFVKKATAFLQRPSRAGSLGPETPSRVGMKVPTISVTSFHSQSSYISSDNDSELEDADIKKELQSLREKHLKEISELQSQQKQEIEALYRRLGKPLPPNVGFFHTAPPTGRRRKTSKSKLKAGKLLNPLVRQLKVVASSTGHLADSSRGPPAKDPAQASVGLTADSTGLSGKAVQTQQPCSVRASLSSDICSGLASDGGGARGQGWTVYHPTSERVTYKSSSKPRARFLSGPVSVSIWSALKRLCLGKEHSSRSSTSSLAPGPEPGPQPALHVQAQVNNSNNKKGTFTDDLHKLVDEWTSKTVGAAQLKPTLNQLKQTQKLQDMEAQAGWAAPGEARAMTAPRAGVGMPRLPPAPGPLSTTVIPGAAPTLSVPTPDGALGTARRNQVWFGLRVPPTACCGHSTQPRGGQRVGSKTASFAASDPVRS
`Nc1[nH]nc2nc3ccccc3nc12` has a remaining activity of 95.9%.
With `O=C(CCCc1ccc(-c2ccccc2F)cc1)Nc1ccc(O)cc1` the remaining activity was 106%.
For `NCCNc1ncc(C(N)=O)c(Nc2cccc(C(F)(F)F)c2)n1`, the remaining activity was 103%.
For `O=c1c2ccccc2[nH]c(=S)n1CCN1CCC(=C(c2ccc(F)cc2)c2ccc(F)cc2)CC1`, the remaining activity was 96.3%.
`Cc1ccc(NC(=O)c2ccc(CN3CCN(C)CC3)cc2)cc1Nc1nc(-c2cccnc2)cs1` has a remaining activity of 99.2%.
For `COc1cc2ncnc(Nc3ccc(Oc4ccccc4)cc3)c2cc1OC`, the remaining activity was 88.1%.
`O=C(Nc1cccc(Nc2cc(Nc3cccc(C(F)(F)F)c3)ncn2)c1)C1CC1` has a remaining activity of 109%.
With `CC(C)[C@H](CO)Nc1nc(Nc2cc(N)cc(Cl)c2)c2ncn(C(C)C)c2n1` the remaining activity was 112%.
`Cn1c2ccccc2c2c3c(c4c5ccccc5n(CCC#N)c4c21)CNC3=O` gave a remaining activity of 103%.
For `O=C(O)c1ccc2c3c1cccc3c(=O)n1c3ccccc3nc21`, the remaining activity was 106%.
The remaining activity of `COc1ccc(C(=O)Nc2sc3c(c2C(N)=O)CCCC3)cc1OC` is reported as 100%.
With `O=S(=O)(c1cccc2cnccc12)N1CCCNCC1` the remaining activity was 99.3%.
`C#Cc1cccc(Nc2ncnc3cc(OCCOC)c(OCCOC)cc23)c1` has a remaining activity of 100%.
The remaining activity of `COc1ccc(OC)c2c(=S)c3ccccc3[nH]c12` is reported as 89.8%.
`COc1cc2nccc(Oc3ccc(NC(=S)NC(=O)c4ccccc4C)cc3)c2cc1OC` has a remaining activity of 94.1%.
With `Cc1nc(-c2ccccc2)c(-c2ccncc2)o1` the remaining activity was 101%.

Block 4 — cell line: HaCaT; tested at: 100 µM; time: 36 h
With `Nc1ccc(S(=O)(=O)NC(=O)c2ccccc2)cc1` the viability was 70.4%.
`CO[C@H]1/C=C/O[C@@]2(C)Oc3c(C)c(O)c4c(O)c(c(/C=N/N5CCN(C6CCCC6)CC5)c(O)c4c3C2=O)NC(=O)/C(C)=C\C=C\[C@H](C)[C@H](O)[C@@H](C)[C@@H](O)[C@@H](C)[C@H](OC(C)=O)[C@@H]1C` has a viability of 39.6%.
With `O=C(O)[C@H](CC(=O)N1C[C@H]2CCCC[C@H]2C1)Cc1ccccc1` the viability was 99.1%.
With `Cn1nnc2c(C(N)=O)ncn2c1=O` the viability was 114%.
With `CCCCN(CCCC)CC(O)c1cc(Cl)cc2c1-c1ccc(Cl)cc1/C2=C/c1ccc(Cl)cc1` (centres unmarked) the viability was 9.05%.
